Published values from different studies.
Numbered parts are unrelated; each lists some results of a single study. Values joined by “and” are separate records of one study, mostly repeats; a detail may differ.
Sequence of UniProt Q9UEE5 (whole entry, looked up): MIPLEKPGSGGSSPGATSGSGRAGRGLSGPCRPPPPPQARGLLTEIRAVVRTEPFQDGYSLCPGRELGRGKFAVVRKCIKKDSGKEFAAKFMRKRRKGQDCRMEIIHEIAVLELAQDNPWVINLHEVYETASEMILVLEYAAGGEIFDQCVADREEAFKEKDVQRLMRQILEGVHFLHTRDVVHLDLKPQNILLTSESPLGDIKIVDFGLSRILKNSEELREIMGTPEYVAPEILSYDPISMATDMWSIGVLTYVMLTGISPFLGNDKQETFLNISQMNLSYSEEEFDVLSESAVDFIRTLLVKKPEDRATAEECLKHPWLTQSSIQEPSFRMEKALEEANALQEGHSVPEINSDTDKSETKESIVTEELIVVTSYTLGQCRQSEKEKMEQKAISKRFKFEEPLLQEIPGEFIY
Sequence of UniProt O95819 (whole entry, looked up): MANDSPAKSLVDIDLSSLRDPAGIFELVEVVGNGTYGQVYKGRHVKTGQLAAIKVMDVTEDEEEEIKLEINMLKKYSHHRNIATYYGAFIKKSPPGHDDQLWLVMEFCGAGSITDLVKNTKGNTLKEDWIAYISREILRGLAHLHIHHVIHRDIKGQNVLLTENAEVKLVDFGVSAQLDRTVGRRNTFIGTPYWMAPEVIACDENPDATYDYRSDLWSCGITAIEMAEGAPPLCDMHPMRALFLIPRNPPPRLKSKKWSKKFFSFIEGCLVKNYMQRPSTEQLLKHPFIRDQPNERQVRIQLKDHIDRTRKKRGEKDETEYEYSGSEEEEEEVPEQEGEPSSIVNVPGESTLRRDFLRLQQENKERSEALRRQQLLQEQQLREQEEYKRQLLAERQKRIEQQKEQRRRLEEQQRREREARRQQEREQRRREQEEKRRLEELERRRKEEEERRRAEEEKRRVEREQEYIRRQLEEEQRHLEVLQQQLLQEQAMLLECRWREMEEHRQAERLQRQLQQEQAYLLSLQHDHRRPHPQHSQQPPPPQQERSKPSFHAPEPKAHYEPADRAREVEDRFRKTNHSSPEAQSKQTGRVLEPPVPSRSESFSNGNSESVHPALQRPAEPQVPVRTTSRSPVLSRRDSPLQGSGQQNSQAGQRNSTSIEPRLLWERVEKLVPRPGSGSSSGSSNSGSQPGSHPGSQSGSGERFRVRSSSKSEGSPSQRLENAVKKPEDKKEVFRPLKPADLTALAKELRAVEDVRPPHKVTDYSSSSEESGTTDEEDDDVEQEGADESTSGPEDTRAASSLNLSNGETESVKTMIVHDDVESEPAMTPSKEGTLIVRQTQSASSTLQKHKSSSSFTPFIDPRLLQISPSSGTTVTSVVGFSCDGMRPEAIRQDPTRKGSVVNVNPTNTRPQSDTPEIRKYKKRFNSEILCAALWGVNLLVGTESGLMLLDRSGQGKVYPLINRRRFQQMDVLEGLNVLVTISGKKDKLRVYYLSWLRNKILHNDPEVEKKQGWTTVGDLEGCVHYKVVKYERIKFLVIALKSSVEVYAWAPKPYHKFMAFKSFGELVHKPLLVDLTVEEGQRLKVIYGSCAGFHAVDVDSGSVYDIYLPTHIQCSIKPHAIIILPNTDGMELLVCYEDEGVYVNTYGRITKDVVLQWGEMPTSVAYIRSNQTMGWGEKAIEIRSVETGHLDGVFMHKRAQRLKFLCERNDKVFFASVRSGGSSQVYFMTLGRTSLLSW
Sequence of UniProt Q9BYP7 (whole entry, looked up): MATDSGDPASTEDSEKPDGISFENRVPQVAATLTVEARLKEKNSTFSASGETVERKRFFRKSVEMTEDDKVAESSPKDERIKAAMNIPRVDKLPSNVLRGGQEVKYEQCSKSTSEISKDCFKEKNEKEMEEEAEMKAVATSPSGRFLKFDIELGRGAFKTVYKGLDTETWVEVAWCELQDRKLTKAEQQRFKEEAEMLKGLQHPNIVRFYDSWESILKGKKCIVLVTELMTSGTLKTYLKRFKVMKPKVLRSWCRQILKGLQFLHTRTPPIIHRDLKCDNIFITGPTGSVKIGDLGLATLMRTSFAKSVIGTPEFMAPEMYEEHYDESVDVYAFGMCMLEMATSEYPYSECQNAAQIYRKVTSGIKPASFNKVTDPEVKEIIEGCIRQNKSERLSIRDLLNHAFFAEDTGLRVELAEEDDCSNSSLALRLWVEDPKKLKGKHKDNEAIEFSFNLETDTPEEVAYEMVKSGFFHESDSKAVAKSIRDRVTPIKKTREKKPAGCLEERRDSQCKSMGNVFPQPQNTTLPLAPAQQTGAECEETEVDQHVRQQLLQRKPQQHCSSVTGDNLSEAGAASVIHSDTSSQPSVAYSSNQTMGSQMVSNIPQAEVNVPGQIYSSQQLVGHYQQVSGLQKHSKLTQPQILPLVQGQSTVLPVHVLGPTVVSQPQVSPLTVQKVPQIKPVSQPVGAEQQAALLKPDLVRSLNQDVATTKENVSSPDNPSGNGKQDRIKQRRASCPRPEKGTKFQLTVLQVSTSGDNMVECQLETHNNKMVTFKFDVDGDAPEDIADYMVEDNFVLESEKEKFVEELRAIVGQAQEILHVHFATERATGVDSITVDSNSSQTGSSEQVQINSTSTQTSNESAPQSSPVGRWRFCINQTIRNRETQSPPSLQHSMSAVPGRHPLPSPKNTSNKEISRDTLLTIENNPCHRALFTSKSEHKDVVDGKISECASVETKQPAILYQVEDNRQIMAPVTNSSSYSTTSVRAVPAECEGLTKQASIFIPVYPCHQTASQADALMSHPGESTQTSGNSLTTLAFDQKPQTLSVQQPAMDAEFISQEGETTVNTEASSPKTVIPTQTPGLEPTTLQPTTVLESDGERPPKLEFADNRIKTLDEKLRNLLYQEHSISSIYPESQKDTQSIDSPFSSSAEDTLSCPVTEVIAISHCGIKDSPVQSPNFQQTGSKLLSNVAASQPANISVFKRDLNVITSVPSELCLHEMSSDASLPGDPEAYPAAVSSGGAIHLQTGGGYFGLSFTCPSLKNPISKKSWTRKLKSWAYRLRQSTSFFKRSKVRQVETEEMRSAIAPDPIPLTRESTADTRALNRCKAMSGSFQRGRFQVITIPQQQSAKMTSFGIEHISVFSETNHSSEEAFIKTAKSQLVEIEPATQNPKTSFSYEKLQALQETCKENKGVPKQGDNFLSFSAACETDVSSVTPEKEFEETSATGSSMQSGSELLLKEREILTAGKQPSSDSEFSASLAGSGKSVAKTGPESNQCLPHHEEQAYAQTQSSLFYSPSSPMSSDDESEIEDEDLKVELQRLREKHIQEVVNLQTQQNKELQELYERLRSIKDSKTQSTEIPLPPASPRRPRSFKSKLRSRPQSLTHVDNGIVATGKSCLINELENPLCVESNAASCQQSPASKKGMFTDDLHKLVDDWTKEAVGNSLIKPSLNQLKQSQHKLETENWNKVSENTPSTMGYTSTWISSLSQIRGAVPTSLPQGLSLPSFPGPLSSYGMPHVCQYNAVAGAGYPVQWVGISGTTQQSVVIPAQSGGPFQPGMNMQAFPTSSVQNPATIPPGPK
Sequence of UniProt O15530 (whole entry, looked up): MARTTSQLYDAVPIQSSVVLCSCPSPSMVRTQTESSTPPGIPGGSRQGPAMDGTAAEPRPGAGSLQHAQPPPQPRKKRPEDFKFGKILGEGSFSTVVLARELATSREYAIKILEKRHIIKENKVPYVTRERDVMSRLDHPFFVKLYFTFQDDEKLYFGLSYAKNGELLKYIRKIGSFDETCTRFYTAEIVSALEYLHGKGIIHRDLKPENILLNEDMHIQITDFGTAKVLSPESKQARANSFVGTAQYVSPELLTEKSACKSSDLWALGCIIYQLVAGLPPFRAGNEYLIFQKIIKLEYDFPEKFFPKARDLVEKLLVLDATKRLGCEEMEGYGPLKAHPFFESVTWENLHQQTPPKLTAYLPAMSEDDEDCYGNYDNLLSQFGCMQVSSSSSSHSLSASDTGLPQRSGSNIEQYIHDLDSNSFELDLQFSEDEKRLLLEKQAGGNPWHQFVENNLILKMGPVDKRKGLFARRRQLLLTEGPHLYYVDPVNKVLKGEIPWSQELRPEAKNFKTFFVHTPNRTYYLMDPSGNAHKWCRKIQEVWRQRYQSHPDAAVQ

Series 1
Cell line: A-375
Tested at: 100 µM
Time: 18 h
Structure (SMILES)	viability
O=C(O)c1nn(Cc2ccc(Cl)cc2Cl)c2ccccc12	109%
c1ccc(NNc2ccccc2)cc1	23.2%
CN[C@H]1C[C@@H](N)[C@H](O)[C@@H](O[C@@H]2O[C@H](CO)[C@H](O)[C@@H]3OC4(O[C@H]23)O[C@H]([C@@H](N)CO)[C@H](O)[C@H](O)[C@H]4O)[C@@H]1O (some centres unmarked)	75.7%
C[C@@H](CO)NC(=O)[C@@H]1C=C2c3cccc4[nH]cc(c34)C[C@H]2N(C)C1	87.9%
CN1C[C@H](C(=O)N[C@]2(C)O[C@@]3(O)[C@@H]4CCCN4C(=O)[C@H](Cc4ccccc4)N3C2=O)C=C2c3cccc4[nH]cc(c34)C[C@H]21	64.6%
C[C@H]1CNCCc2ccc(Cl)cc21	87.4%

Series 2
Structure (SMILES): CCn1cnc2c(Nc3cccc(Cl)c3)nc(N[C@H]3CCCC[C@H]3N)nc21
Effect on: enzyme activity
Action: inhibitor
Tested at: 0.5 µM
Baseline: control
target	remaining activity
Calcium/calmodulin-dependent protein kinase type II subunit beta (CAMK2B, Homo sapiens, UniProt Q13554)	110%
Cyclin-dependent kinase 4, with cyclin D3 (CDK4, Homo sapiens, UniProt P11802)	71.5%
Mitogen-activated protein kinase kinase kinase kinase 4 (MAP4K4, Homo sapiens, UniProt O95819)	72.5%
MAP kinase-activated protein kinase 3 (MAPKAPK3, Homo sapiens, UniProt Q16644)	91.3%
Ribosomal protein S6 kinase alpha-5 (RPS6KA5, Homo sapiens, UniProt O75582)	87.8%
3-phosphoinositide-dependent protein kinase 1 (PDPK1, Homo sapiens, UniProt O15530)	94.8%
Phosphorylase b kinase gamma catalytic chain, skeletal muscle/heart isoform (PHKG1, Homo sapiens, UniProt Q16816)	62.8%
Ephrin type-B receptor 4 (EPHB4, Homo sapiens, UniProt P54760)	70.8%
Serine/threonine-protein kinase 17A (STK17A, Homo sapiens, UniProt Q9UEE5)	98.4%
Homeodomain-interacting protein kinase 2 (HIPK2, Homo sapiens, UniProt Q9H2X6)	94%
Serine/threonine-protein kinase WNK3 (WNK3, Homo sapiens, UniProt Q9BYP7)	92%

Mixed results
CDPK1: Calcium-dependent protein kinase 1 (CDPK1, Plasmodium falciparum, UniProt P62344)
Sequence of UniProt P62344 (whole entry, looked up): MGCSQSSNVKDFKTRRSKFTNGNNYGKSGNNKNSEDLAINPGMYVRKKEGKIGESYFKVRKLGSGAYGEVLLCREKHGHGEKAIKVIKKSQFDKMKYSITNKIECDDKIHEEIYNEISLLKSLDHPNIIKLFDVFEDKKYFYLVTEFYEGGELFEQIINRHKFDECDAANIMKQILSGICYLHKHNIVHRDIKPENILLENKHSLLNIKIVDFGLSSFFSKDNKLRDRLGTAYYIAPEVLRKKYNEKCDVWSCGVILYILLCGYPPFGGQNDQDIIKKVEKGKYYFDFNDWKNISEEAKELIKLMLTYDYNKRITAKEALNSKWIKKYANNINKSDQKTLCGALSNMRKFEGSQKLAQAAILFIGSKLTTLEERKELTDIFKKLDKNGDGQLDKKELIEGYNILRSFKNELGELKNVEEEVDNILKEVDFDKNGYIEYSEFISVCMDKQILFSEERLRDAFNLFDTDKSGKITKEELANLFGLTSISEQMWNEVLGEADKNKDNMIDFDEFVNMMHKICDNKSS
CRK2: Cyclin-dependent kinase 2 homolog (CRK2, Plasmodium falciparum, UniProt P61075)
Sequence of UniProt P61075 (whole entry, looked up): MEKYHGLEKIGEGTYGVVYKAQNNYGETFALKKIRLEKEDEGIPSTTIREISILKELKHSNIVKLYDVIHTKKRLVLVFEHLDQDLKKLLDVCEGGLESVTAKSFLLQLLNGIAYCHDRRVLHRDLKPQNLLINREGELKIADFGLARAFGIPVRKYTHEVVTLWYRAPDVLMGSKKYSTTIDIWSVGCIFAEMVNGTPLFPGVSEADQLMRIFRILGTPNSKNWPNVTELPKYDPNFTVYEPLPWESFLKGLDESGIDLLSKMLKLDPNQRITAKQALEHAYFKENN
SMILES	tested on	assay	test system	conditions	quantity	result
CO[C@@H](C)c1c(Nc2ccc([C@H](N(C)C(=O)C3CCS(=O)(=O)CC3)C(F)(F)F)cc2)cnc2cc(Cl)nn12	CDPK1	cell-free assay, competition with immobilised ligand		1 µM	remaining binding	97%
[N-]=[N+]=CC(=O)CC[C@H](N)C(=O)O			C57BL/6 CES1-/- mouse	intravenous, 1 mg/kg	mean corpuscular volume	41.8 fL and 43.7 fL and 44.4 fL
CC1=C(C#N)[C@@H](c2ccc3[nH]nc(C)c3c2)C(C#N)=C(c2ccc(Cl)cc2)N1	CDPK1	cell-free assay, competition with immobilised ligand		1 µM	remaining binding	100%
CC(=O)N[C@@H](Cc1c[nH]c2ccccc12)C(=O)N[C@@H](CCC(=O)C=[N+]=[N-])C(=O)OC(C)C			C57BL/6 CES1-/- mouse	intravenous, 1 mg/kg	mean corpuscular volume	45.2 fL and 45.5 fL and 47 fL
NS(=O)(=O)c1cc(NC(=O)C2(c3ccccc3Cl)CC2)ccc1Oc1cccc(Cl)c1	CRK2	cell-free assay, competition with immobilised ligand		1 µM	remaining binding	93%
O=C(N1CCS(=O)(=O)CC1)N1C[C@H](c2ccc(OC(F)(F)F)cc2)C[C@H](c2nc(C3CC3)no2)C1	CRK2	cell-free assay, competition with immobilised ligand		1 µM	remaining binding	100%

Excerpt of the above (series 2):
target	remaining activity
Homeodomain-interacting protein kinase 2 (HIPK2, Homo sapiens, UniProt Q9H2X6)	94%
